Measured values pooled from the literature.
“And” joins repeats or separate records; there may be more than shown.
Target: Aurora kinase B (AURKB, Homo sapiens, UniProt Q96GD4)

Cc1ccc(C(=O)NC(C)c2cccc(-c3ccncc3)c2)cn1 (stereo not shown) has a remaining binding of 28% (cell-free assay, competition with immobilised ligand; 10 µM).
For O=C(Cc1ccc(OCc2ccccc2)cc1)NC1(C(=O)O)CCN(C(=O)c2ccc(-c3cccc(Cl)c3)cc2)CC1, “activity vs control” read 78% (enzyme activity, inhibitor; 10 µM).
N[C@H]1CC[C@H](Nc2nccc(-c3cccnc3Oc3ccc(NC(=O)NC4CC4)c4ccccc34)n2)CC1 — result for “log2 LFQ intensity”: 23.9 and 23.8 and 23.7 and 23.6 (kinobead competition pulldown; HEK293/HCT116 lysate mixture; 10 µM, 1 h, 4 °C; lower = stronger competition).
For CS(=O)(=O)Nc1cccc(-c2csc3cnc(Nc4ccc(N5CCN(CCCCCOc6cccc7c6C(=O)N(C6CCC(=O)NC6=O)C7=O)CC5)cc4)nc23)c1 (stereo not shown), the inhibition was 63.2% (probe labelling, inhibitor, KiNativ chemoproteomics; MOLT-4; 1 µM).
CNC(=O)C1CCN(c2cc(C)c(F)cc2NC(=O)c2ccc(-c3cc(O)ccc3C)c(C)c2)CC1 gave a remaining binding of 100% (binding, competition with immobilised ligand; 1 µM).
COc1cc(Nc2nccc(-c3cnn4nc(OC)ccc34)n2)cc(C(F)(F)F)c1 gave a remaining binding of 100% (binding, competition with immobilised ligand; 1 µM).
C=CC(=O)N1Cc2nc(-c3cc(-c4cc(Cl)cnc4Cl)c(F)cc3F)n(-c3ccncn3)c2C1 gave an inhibition of 5.8% (enzyme activity, inhibitor; 1 µM).
The inhibition of COc1ccc(C(=O)/C=C/c2ccccc2-c2c[nH]c3ccc(C#N)cc23)c(O)c1 is reported as 16% (enzyme activity, inhibitor; 20 µM).
Cc1[nH]nc2c1N=C(c1ccccc1Cl)c1cnc(N3CCOCC3)cc1N2 gave an inhibition of over 99% (enzyme activity, inhibitor; 0.5 µM).
CCN1CCN(Cc2ccc(C(=O)Nc3ccc(C)c(NCc4cnc5[nH]ccc5c4OC)c3)cc2C(F)(F)F)CC1 gave a remaining binding of 54% (binding, competition with immobilised ligand; 1 µM).
The remaining binding of CC(=O)N1c2ccc(-c3ccc(CNC(=O)c4cn5cc(-c6cnc(N)nc6)nc(N6CCOCC6)c5n4)cc3)cc2CC[C@@H]1C is reported as 78% (KINOMEscan; 10 µM).
Cc1cccc(O[C@H]2CCC[C@@H](C(C)CNCc3ccncc3)C2)c1 (relative stereo) has an inhibition of -1% (enzyme activity, inhibitor; 10 µM).
For Nc1nc(Nc2ccccc2)sc1C(=O)c1ccccc1, the remaining activity was 59% (enzyme activity, inhibitor; 10 µM).
The remaining binding of CN1CCN(Cc2ccc(NC(=O)c3cccc(C#Cc4cnc(N)c5ncccc45)c3)cc2C(F)(F)F)CC1 is reported as 29% (cell-free assay, competition with immobilised ligand; 50 nM).
CNS(=O)(=O)Nc1nccc(Cc2c(C)c3ccc(Oc4ncccc4F)cc3oc2=O)c1F gave a remaining binding of 70% (binding, competition with immobilised ligand; 10 µM).
For COc1ccc(NC(=O)Nc2ccc3c(c2)C(=O)N(C(C)CO)CC(C)C(CN(C)Cc2ccc4c(c2)OCO4)O3)cc1 (stereo not shown), the remaining activity was 17% (kinase activity; 0.03 µM; baseline: control).
The remaining binding of C=CC(=O)N1CCCC(n2c(=O)c3ncccc3n(Cc3ccc(Oc4ccccc4)cc3)c2=O)C1 (stereo not shown) is reported as 69% (cell-free assay, competition with immobilised ligand; 1 µM).
C[C@H]1CN(C(=O)c2cn(-c3ccnc(N)n3)c3cc(C#CC4(O)CCCCC4)ccc23)CCN1 gave an inhibition of 53% (enzyme activity, inhibitor, FRET; 1 µM).
The remaining binding of CC(C)=CC1OC(C)(C)C2C=C3C(=O)C(Cl)=CC(O)C3C3C(O)C4OC4C(=O)C132 (stereo not shown) is reported as 70% (cell-free assay, competition with immobilised ligand; 10 µM).
With NC(=O)[C@@H](O)C[C@H]1CCc2sc3ncnc(O[C@H]4CC[C@H](N5CCOCC5)CC4)c3c21 the inhibition was 6% (enzyme activity, inhibitor; 10 µM).
With C=CC(=O)Nc1cccc(-c2cnc3[nH]cc(C(=O)NC(C)(C)C)c3n2)c1 the inhibition was 16% and 19% (kinase activity; 0.1 µM).
CNC(=O)C[C@H](Cc1ccc(C#N)cc1)NC(=O)c1cc(-c2ccc(CN[C@H](C)c3ccc(C)cc3)o2)ccc1Cl: “activity vs control” 122% (enzyme activity, inhibitor; 1 µM).

A few entries again:
For CS(=O)(=O)Nc1cccc(-c2csc3cnc(Nc4ccc(N5CCN(CCCCCOc6cccc7c6C(=O)N(C6CCC(=O)NC6=O)C7=O)CC5)cc4)nc23)c1 (stereo not shown), the inhibition was 63.2% (probe labelling, inhibitor, KiNativ chemoproteomics; MOLT-4; 1 µM).
CNC(=O)C1CCN(c2cc(C)c(F)cc2NC(=O)c2ccc(-c3cc(O)ccc3C)c(C)c2)CC1 gave a remaining binding of 100% (binding, competition with immobilised ligand; 1 µM).
COc1cc(Nc2nccc(-c3cnn4nc(OC)ccc34)n2)cc(C(F)(F)F)c1 gave a remaining binding of 100% (binding, competition with immobilised ligand; 1 µM).
